# Measurements collected from several papers.
# Parts stem from different laboratories: compare values within a part only.

# Set 1
# Target: His6 tag
# Method: AlphaScreen counter screen
# Concentration: concentration not given
SMILES,inhibition
COc1ccc(-c2cc3c(C)nc(N)nc3n([C@H]3CC[C@H](OCCO)CC3)c2=O)cn1.O.O,-22.6%
O=C(CSc1ccc2nnc(-c3cccc(F)c3)n2n1)Nc1ccc(Cl)cc1,-17.6%
CCCCc1c(-c2ccc(O)cc2)[nH]c2nccnc12,-11.1%
O=C(Cc1ccc(-c2ccc(OCCN3CCOCC3)cc2)cn1)NCc1ccccc1,10.8%
CC[C@H](Nc1ncnc2[nH]cnc12)c1nc2cccc(F)c2c(=O)n1-c1ccccc1,1.1%
CN1CCC(Nc2ncc3ncnc(Nc4ccc(F)c(Cl)c4)c3n2)CC1,-11%
COC(=O)C(C)Sc1ccc2nnc(-c3ccc(Cl)cc3)n2n1 (centres unmarked),-8.65%
Cc1cn([C@H]2C[C@H](N=[N+]=[N-])[C@@H](CO)O2)c(=O)[nH]c1=O,1.55%

# Set 2
# Target: 5-hydroxytryptamine receptor 2B (HTR2B, Homo sapiens, UniProt P41595)
# Sequence of UniProt P41595 (whole entry, looked up): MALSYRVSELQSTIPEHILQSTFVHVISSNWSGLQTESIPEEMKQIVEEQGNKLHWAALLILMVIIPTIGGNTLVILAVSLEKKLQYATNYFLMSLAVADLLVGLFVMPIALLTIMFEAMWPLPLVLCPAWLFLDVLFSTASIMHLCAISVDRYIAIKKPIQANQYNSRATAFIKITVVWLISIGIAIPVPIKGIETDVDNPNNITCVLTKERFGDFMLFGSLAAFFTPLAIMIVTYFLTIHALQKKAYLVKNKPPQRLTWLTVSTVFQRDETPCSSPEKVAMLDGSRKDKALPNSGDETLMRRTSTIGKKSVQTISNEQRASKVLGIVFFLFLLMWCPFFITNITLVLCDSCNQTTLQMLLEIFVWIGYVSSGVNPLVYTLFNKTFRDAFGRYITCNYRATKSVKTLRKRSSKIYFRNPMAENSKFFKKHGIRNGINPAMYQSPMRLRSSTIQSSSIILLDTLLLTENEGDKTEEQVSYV
# Read-out: ligand displacement
# Concentration: 10 µM
Compound,inhibition [%]
O=C(Nc1cnc(Oc2ccc(F)cc2)nc1)N1CCc2ncccc2[C@@H]1c1ccc(F)cc1,37.6
COc1ccc2c(c1)O[C@@H](c1ccc(OC)c(OC)c1)C[C@H]2NC(=O)C1(c2ccc3c(c2)OC(F)(F)O3)CC1,-0.83
CC(C)CC(=O)N1CCc2nc(-c3ccc(Br)cc3)nc(N(C)Cc3ccccc3)c2C1,7.85
CC(=O)Nc1ncc(CN2CCC[C@H](Cc3cc(C)nc(C)c3)C2)s1,6.7
CO[C@@H](C)c1c(Nc2ccc([C@H](N(C)C(=O)C3CCS(=O)(=O)CC3)C(F)(F)F)cc2)cnc2cc(Cl)nn12,-3.94
COc1ccc2cc(OCC3(C(=O)O)CN(C(=O)c4ccc(F)cc4)C3)ccc2c1,-0.11
CC(=O)N1CCC(c2ccc(C(=O)NC(=N)N)cc2C(F)(F)F)CC1,-8.79
CCS(=O)(=O)c1cc2cc(C[C@](O)(CC(C)(C)c3ccc(F)cc3C(N)=O)C(F)(F)F)[nH]c2cn1,26.1
O=C(NCc1ncc(C(F)(F)F)cc1Cl)c1ccc2c(c1)C1(CCS(=O)(=O)CC1)[C@H](C1CC1)N2S(=O)(=O)c1ccc(F)cc1,-2.53
Cc1cc(C)c(-n2ccn3nc(-c4cccnc4)cc23)cc1NC(=O)c1cc(C#N)cc(S(F)(F)(F)(F)F)c1,-7
CC1=C(C#N)C(c2ccc3[nH]nc(C)c3c2)C(C#N)=C(C)N1,-10.4
C[C@H](NC(=O)Nc1cc2[nH]ncc2c(CO)n1)c1ccccn1,90.9
O=C(O)[C@H]1[C@H](Cn2nnc3ccccc3c2=O)CC[C@@H]1C(=O)c1ccc(OCCC2CCOCC2)cc1,22.8
CN(C)CC#Cc1ccc(OCCCc2sc(N3CCc4cccc(C(=O)Nc5nc6ccccc6s5)c4C3)nc2C(=O)O)c(F)c1,5.67

# Set 3
# Target: Mitogen-activated protein kinase kinase kinase 7 (MAP3K7, Homo sapiens, UniProt O43318)
# Read-out: enzyme activity
# Mode: inhibitor
# Concentration: 0.5 µM
# Reference: control
# Target sequence (O43318 1-606): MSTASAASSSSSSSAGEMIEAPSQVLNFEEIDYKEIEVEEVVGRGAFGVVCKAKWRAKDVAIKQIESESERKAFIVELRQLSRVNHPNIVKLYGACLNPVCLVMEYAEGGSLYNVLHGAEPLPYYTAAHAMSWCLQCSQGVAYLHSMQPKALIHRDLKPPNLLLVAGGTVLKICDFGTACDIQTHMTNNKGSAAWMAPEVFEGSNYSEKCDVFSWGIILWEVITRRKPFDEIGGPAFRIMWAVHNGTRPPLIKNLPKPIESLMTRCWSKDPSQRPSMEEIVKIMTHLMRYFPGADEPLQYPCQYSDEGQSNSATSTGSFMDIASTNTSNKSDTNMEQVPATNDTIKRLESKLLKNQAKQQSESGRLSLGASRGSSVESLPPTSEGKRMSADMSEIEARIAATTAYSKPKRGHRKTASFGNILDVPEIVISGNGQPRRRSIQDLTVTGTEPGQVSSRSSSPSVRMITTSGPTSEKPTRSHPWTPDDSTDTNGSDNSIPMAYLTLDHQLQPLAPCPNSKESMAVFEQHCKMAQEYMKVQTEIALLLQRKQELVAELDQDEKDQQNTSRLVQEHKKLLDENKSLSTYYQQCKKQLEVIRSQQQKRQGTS
Structure (SMILES),remaining activity
COc1ccc(-c2cnc3c(-c4ccsc4)cnn3c2)cc1,97.6%
Cc1nc(Nc2ncc(C(=O)Nc3c(C)cccc3Cl)s2)cc(N2CCN(CCO)CC2)n1,87.3%
CC(C)[C@H](CO)Nc1nc(Nc2cccc(Cl)c2)c2ncn(C(C)C)c2n1,71.1%
O=C1NC(=O)/C(=C/c2ccc3nccnc3c2)S1,98.7%
COc1cc2ncnc(Nc3ccc(OCc4ccccc4)cc3)c2cc1OC,101%
CC(=O)O/N=C1/C(c2c(O)[nH]c3cc(Br)ccc23)=Nc2ccccc21,97.4%
CC(C)c1nn(-c2c(Cl)cccc2Cl)c2nc(Cc3ccc(OCCO)cc3)[nH]c(=O)c12,98.5%
CN(C)CCCn1cc(C2=C(c3c[nH]c4ccccc34)C(=O)NC2=O)c2ccccc21,93.6%

# Set 4
# Compound: COc1cc(C(=O)N2CCC(N3CCN(C)CC3)CC2)ccc1Nc1ncc2c(n1)N(C)c1ccccc1C(=O)N2C
# Method: KINOMEscan
# Concentration: 10 µM
# Reference: DMSO control
# Reading: lower = stronger binding
target,binding
LKB1,96%
LATS1,100%
CLK3,95%
PAK2,65%
MAST1,100%
MYO3A,94%
DYRK2,76%
FGFR2,95%
HCK,100%
NIM1,100%
EPHA1,100%

# Repeated from above (set 4):
target,binding
LATS1,100%
CLK3,95%
PAK2,65%
MAST1,100%
MYO3A,94%
